Measurements of several laboratories.
Each line is one published result; not all experiments were run side by side. Numbers after ± are the reported error.

Compound | assay | test system | conditions | endpoint | result
CC#CC(=O)N1CCC[C@H]1c1nc(-c2ccc(C(=O)Nc3ccccn3)cc2)c2c(N)nccn12 | population pharmacokinetics | healthy subjects | oral, dose not given | apparent peripheral volume (Vp/F) | 49 L
O=C(O)c1cccc(C(=O)O)c1 |  | betaine/propylene glycol DES-water | DES mass fraction 0.80 | apparent dissolution enthalpy | 4.84 kcal/mol
OC[C@H]1O[C@@H](c2cc(Cc3ccc(C4CC4)cc3)c(Cl)c3c2CCO3)[C@H](O)[C@@H](O)[C@@H]1O |  | healthy Korean adults, fasted, plasma | oral, 0.3 mg single dose, separate tablets, with: co-administered drug 50 mg | apparent clearance CL/F | 8990 ± 2740 mL/h
O=C(c1cccnc1-c1ccncc1)N1CCC(O)(Cc2ccccc2)CC1 | population PK model | healthy adults | oral, 300 mg | apparent peripheral volume | 356 L
Cc1c(C(=O)O)ccc2c3n(nc12)[C@@H]1[C@H](C3)N(CC2CC2)[C@@]2(C(=O)Nc3cc(Cl)ccc32)[C@H]1c1cccc(Cl)c1F |  | cancer patients, plasma | oral, 45 mg day 1 every 3 weeks, geometric mean, cycle 1 | apparent clearance CL/F | 440 mL/h
CCCCOCCOc1ccc(-c2ccc3c(c2)/C=C(/C(=O)Nc2ccc([S@@+]([O-])Cc4cncn4CCC)cc2)CCCN3CC(C)C)cc1 |  | mild hepatic impairment patients, plasma | 150 mg, day 1, single dose, geometric mean | apparent clearance CL/F | 27100 mL/h
N[C@@H](CC(=O)N1CCc2c(nc(C(F)(F)F)nc2C(F)(F)F)C1)CN1CC(F)(F)CCC1=O |  | healthy Korean adults, fasted, plasma | oral, 50 mg single dose, fixed-dose combination tablet, with: enavogliflozin 0.3 mg | apparent volume Vd/F | 981 ± 228 L
CNC(=O)c1c(C)oc2cc(Oc3ncnc4cc(OC)c(OC)cc34)ccc12 | final population PK model | cancer patient weighing sample A kg | oral, dose not given, no proton pump inhibitor | apparent volume of distribution | 50.4 L
CC1(C)CCC(CN2CCN(c3ccc(C(=O)NS(=O)(=O)c4ccc(NCC5CCOCC5)c([N+](=O)[O-])c4)c(Oc4cnc5[nH]ccc5c4)c3)CC2)=C(c2ccc(Cl)cc2)C1 | final population PK model | AML patients, plasma | oral, dose not given | apparent central volume (V2/F) | 110 L

Excerpt of the above:
Compound | assay | test system | conditions | endpoint | result
CCCCOCCOc1ccc(-c2ccc3c(c2)/C=C(/C(=O)Nc2ccc([S@@+]([O-])Cc4cncn4CCC)cc2)CCCN3CC(C)C)cc1 |  | mild hepatic impairment patients, plasma | 150 mg, day 1, single dose, geometric mean | apparent clearance CL/F | 27100 mL/h
